Measurements of several laboratories.
Numbered parts are unrelated; each lists some results of a single study. Positions count from the first letter of the parent shown.
UniProt Q9Y243, sequence (whole entry, looked up): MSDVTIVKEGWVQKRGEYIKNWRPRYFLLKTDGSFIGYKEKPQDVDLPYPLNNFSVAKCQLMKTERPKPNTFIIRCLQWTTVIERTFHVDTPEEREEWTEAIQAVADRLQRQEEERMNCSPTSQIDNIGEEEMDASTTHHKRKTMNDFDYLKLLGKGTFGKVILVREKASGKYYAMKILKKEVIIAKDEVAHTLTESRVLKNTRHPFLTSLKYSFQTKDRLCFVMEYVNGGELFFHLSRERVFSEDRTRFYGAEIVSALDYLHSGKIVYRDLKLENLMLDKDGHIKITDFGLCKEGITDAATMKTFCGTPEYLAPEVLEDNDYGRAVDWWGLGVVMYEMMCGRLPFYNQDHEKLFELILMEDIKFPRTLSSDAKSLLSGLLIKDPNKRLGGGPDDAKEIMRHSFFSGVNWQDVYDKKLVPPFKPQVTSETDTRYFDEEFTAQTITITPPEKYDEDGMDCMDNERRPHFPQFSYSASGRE

Series 1 — target: JUN, bZIP domain (human); technique: DHFR protein complementation; medium: yeast; reference: wild-type JUN-FOS pair; direction: higher = stronger binding
Notes: single substitutions, most at no-binding floor
Starting sequence: JUN, bZIP domain (human); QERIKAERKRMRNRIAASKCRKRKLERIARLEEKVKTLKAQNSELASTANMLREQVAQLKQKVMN; partner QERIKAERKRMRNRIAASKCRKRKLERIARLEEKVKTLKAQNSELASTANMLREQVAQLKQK
Substitution | binding fitness
N42A | -0.838 natural log
V56D | -0.951 natural log
V35T | -1.16 natural log
S43E | -0.0145 natural log
E54H | -0.5 natural log
T48R | -0.446 natural log
K36G | -0.652 natural log
A40H | -0.299 natural log

Series 2 — read-out: enzyme activity; mode: inhibitor; tested at: 0.5 µM; reference: control
Target: Protein kinase C iota type (PRKCI, Homo sapiens, UniProt P41743)
Target sequence (P41743 1-596): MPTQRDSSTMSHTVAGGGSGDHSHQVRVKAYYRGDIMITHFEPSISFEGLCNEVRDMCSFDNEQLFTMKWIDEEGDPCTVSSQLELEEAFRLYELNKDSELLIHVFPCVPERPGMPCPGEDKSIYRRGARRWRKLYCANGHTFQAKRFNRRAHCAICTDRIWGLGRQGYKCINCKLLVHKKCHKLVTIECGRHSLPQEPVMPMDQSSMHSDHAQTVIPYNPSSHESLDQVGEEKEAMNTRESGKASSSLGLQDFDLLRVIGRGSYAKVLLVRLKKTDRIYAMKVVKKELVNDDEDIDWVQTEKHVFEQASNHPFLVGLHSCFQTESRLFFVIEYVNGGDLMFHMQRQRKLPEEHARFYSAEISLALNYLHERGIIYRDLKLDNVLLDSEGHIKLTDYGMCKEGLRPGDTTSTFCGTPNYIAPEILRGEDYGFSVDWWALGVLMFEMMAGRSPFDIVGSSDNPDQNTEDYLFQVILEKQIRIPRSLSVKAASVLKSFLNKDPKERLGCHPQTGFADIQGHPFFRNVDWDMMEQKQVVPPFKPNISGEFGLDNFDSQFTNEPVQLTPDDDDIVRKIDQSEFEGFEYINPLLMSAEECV
Compound | remaining activity [%]
Nc1cccc(-c2cc3c(Oc4cccc(O)c4)ncnc3[nH]2)c1 | 84.7
Cn1nc2c3c(cccc31)C(=O)c1ccccc1-2 | 98.5
Ic1cccc(CSc2nnc(-c3ccncc3)o2)c1 | 96.4
CCN(CC)CCNC(=O)c1c(C)[nH]c(/C=C2\C(=O)Nc3ccc(F)cc32)c1C | 103
COc1cc2ncnc(Nc3cccc(Cl)c3)c2cc1OC | 97.5
Cc1nc2cc3nc(-c4cccs4)cnc3cc2n1C | 99.1

Single results of other studies
Molecule | target or system | test | system | setting | scale | endpoint | result
CC(C)n1cnc(-c2ccc(F)cc2)c1-c1ncc(C(=O)Nc2ccc(N3CCN(C)CC3)cc2)[nH]1 |  |  | IPF patients | 30 mg once daily, adverse event |  | carbon dioxide decreased incidence | 0%
PhoQ, residues 284 288 289 292 302 303 HSYLQF | PhoP, residues 12 14 15 18 19 SYFRT (Escherichia coli, UniProt P23836) | Sort-seq, measured: YFP reporter | E. coli | PhoQ-PhoP variant library, together with: 10 µM Mg2+ | reference: high Mg2+ state, higher = stronger signaling | fold induction | 11
NC1(c2ccc(-c3nc4c(O)ccnn4c3-c3ccccc3)cc2)CCC1 | AKT3 (Homo sapiens, UniProt Q9Y243) | target engagement in cells, BRET |  |  |  | EC50 | > 50 µM

Excerpt of the above (single results of other studies):
Molecule | target or system | test | system | setting | scale | endpoint | result
NC1(c2ccc(-c3nc4c(O)ccnn4c3-c3ccccc3)cc2)CCC1 | AKT3 (Homo sapiens, UniProt Q9Y243) | target engagement in cells, BRET |  |  |  | EC50 | > 50 µM
